Measured values of several laboratories.
Parts stem from different laboratories: compare values within a part only. Several values in a cell are separate wells, animals, samples, runs or records.
UniProt P42336, sequence (whole entry, unmodified, looked up): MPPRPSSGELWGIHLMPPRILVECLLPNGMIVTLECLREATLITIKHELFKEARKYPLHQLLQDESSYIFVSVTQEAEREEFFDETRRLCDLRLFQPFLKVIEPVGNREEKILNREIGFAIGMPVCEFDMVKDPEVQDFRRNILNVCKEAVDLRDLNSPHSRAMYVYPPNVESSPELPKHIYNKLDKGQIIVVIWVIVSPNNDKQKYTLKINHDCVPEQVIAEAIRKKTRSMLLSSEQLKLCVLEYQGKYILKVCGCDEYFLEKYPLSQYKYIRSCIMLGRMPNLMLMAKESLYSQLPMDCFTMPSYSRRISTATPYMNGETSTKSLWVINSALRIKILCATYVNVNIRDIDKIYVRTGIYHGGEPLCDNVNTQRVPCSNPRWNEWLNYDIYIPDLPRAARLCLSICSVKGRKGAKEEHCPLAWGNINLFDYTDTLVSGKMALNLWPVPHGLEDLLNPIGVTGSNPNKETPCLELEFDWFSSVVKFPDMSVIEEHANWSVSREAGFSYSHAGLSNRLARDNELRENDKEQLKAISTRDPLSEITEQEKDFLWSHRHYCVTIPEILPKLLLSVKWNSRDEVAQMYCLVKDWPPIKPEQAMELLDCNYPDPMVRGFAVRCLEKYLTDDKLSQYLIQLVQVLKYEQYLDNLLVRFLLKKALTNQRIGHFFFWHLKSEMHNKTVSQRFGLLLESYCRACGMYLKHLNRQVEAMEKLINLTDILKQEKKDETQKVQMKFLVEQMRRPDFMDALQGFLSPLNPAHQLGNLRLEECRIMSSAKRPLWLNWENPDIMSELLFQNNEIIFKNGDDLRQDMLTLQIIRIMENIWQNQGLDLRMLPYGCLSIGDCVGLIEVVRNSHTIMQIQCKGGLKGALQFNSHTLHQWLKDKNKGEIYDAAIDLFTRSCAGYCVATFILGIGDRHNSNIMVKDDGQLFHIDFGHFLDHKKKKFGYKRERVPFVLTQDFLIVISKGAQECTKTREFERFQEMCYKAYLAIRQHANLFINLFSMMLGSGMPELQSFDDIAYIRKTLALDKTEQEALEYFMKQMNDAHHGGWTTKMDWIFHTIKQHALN
UniProt Q9H4B4, sequence (whole entry, looked up): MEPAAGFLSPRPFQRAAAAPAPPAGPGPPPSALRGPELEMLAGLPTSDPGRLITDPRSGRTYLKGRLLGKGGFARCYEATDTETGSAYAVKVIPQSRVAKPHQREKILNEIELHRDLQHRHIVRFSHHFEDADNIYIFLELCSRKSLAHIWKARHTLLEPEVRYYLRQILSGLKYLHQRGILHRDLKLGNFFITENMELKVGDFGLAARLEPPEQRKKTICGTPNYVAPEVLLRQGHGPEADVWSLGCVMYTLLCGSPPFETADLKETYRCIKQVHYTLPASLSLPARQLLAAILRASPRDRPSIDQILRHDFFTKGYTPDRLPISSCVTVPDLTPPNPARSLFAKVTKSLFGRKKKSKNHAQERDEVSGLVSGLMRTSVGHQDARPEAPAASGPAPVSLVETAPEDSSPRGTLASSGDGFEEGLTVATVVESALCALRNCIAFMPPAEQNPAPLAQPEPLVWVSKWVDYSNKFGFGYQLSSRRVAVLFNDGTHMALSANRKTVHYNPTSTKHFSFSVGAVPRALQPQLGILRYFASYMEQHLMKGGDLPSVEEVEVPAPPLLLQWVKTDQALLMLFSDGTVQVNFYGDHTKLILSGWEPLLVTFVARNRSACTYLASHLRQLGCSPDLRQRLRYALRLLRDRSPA
UniProt P19784, sequence (whole entry, looked up): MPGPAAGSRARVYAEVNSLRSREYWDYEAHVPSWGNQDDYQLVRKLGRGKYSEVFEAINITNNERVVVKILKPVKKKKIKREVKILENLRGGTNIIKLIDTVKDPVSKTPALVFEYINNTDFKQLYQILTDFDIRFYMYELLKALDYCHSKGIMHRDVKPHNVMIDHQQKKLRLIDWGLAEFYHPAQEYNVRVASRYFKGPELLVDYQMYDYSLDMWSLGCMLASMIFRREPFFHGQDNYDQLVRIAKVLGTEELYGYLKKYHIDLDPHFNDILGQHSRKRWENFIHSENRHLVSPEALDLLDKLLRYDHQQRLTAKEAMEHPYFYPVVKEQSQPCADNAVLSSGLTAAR

Sample 1
Target: Beta-1 adrenergic receptor (ADRB1, Homo sapiens, UniProt P08588)
UniProt P08588, sequence (whole entry, looked up): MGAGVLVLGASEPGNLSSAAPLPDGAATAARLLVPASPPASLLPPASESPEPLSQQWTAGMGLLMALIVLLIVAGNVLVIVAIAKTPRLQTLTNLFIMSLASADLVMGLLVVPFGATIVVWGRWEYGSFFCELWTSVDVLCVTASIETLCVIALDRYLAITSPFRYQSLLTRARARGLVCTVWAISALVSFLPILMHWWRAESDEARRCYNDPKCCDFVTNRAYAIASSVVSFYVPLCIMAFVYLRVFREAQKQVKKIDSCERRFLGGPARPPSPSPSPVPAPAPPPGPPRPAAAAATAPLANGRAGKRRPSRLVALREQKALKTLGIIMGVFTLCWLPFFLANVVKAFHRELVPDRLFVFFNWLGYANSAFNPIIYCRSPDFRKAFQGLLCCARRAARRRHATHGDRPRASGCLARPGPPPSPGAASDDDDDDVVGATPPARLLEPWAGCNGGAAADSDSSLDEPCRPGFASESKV
Mode: agonist
Quantity: EC50
COc1ccccc1N1CCN([C@H]2[C@@H]3OC[C@@H](O3)[C@@H](NCc3ccco3)[C@@H]2O)CC1: ≥ 100 µM
CC(C)CN1C(=O)COC[C@@H]1[C@H](O)c1ccc(NC(=O)CCc2ccccc2)cc1: ≥ 100 µM
CC(Cc1ccccc1)NN (centres unmarked): ≥ 100 µM
FC(F)(F)c1cccc(C2=NOC3(CCN(Cc4ccsc4)C3)C2)c1 (centres unmarked): ≥ 100 µM
COc1ccccc1N1CCN([C@@H]2[C@H](O)[C@H](CO)O[C@@H]2CNC(=O)c2ccc(F)c(Cl)c2)CC1: ≥ 100 µM
COc1ccc(OC)c(C(O)Cn2ccn3nc(-c4ccc(C(C)C)cc4)cc3c2=O)c1 (centres unmarked): ≥ 100 µM
O=C(NCC1CCN(CCc2ccccc2)C1)c1ccc2[nH]cnc2c1 (centres unmarked): ≥ 100 µM

Sample 2
Structure (SMILES): C[C@H](c1cccc(C#N)c1)n1cc(Cl)cc(C(N)=O)c1=N
Observed: cell-free assay
Method: competition with immobilised ligand
Tested at: 1 µM
Quantity: remaining binding
PIK3CA (Homo sapiens, UniProt P42336, H1047L): 92%
SGK2 (Homo sapiens, UniProt Q9HBY8): 100%
EGFR (Homo sapiens, UniProt P00533, G719C): 100%
ULK2 (Homo sapiens, UniProt Q8IYT8): 71%
MARK2 (Homo sapiens, UniProt Q7KZI7): 100%
PIK3C2G (Homo sapiens, UniProt O75747): 88%
PLK3 (Homo sapiens, UniProt Q9H4B4): 83%
ABL2 (Homo sapiens, UniProt P42684): 90%
Ribosomal protein S6 kinase alpha-1, C-terminal kinase domain (RPS6KA1, Homo sapiens, UniProt Q15418): 97%
PIK3CA (Homo sapiens, UniProt P42336, I800L): 56%
HIPK1 (Homo sapiens, UniProt Q86Z02): 83%
TAOK1 (Homo sapiens, UniProt Q7L7X3): 90%
MAP3K4 (Homo sapiens, UniProt Q9Y6R4): 47%
CSNK2A2 (Homo sapiens, UniProt P19784): 100%
BMPR2 (Homo sapiens, UniProt Q13873): 97%
FLT3 (Homo sapiens, UniProt P36888): 95%
PIK3CA (Homo sapiens, UniProt P42336, M1043I): 100%

Sample 3
Target: DNA polymerase theta, ATPase domain (POLQ, Homo sapiens, UniProt O75417)
UniProt O75417, sequence (whole entry, unmodified, looked up): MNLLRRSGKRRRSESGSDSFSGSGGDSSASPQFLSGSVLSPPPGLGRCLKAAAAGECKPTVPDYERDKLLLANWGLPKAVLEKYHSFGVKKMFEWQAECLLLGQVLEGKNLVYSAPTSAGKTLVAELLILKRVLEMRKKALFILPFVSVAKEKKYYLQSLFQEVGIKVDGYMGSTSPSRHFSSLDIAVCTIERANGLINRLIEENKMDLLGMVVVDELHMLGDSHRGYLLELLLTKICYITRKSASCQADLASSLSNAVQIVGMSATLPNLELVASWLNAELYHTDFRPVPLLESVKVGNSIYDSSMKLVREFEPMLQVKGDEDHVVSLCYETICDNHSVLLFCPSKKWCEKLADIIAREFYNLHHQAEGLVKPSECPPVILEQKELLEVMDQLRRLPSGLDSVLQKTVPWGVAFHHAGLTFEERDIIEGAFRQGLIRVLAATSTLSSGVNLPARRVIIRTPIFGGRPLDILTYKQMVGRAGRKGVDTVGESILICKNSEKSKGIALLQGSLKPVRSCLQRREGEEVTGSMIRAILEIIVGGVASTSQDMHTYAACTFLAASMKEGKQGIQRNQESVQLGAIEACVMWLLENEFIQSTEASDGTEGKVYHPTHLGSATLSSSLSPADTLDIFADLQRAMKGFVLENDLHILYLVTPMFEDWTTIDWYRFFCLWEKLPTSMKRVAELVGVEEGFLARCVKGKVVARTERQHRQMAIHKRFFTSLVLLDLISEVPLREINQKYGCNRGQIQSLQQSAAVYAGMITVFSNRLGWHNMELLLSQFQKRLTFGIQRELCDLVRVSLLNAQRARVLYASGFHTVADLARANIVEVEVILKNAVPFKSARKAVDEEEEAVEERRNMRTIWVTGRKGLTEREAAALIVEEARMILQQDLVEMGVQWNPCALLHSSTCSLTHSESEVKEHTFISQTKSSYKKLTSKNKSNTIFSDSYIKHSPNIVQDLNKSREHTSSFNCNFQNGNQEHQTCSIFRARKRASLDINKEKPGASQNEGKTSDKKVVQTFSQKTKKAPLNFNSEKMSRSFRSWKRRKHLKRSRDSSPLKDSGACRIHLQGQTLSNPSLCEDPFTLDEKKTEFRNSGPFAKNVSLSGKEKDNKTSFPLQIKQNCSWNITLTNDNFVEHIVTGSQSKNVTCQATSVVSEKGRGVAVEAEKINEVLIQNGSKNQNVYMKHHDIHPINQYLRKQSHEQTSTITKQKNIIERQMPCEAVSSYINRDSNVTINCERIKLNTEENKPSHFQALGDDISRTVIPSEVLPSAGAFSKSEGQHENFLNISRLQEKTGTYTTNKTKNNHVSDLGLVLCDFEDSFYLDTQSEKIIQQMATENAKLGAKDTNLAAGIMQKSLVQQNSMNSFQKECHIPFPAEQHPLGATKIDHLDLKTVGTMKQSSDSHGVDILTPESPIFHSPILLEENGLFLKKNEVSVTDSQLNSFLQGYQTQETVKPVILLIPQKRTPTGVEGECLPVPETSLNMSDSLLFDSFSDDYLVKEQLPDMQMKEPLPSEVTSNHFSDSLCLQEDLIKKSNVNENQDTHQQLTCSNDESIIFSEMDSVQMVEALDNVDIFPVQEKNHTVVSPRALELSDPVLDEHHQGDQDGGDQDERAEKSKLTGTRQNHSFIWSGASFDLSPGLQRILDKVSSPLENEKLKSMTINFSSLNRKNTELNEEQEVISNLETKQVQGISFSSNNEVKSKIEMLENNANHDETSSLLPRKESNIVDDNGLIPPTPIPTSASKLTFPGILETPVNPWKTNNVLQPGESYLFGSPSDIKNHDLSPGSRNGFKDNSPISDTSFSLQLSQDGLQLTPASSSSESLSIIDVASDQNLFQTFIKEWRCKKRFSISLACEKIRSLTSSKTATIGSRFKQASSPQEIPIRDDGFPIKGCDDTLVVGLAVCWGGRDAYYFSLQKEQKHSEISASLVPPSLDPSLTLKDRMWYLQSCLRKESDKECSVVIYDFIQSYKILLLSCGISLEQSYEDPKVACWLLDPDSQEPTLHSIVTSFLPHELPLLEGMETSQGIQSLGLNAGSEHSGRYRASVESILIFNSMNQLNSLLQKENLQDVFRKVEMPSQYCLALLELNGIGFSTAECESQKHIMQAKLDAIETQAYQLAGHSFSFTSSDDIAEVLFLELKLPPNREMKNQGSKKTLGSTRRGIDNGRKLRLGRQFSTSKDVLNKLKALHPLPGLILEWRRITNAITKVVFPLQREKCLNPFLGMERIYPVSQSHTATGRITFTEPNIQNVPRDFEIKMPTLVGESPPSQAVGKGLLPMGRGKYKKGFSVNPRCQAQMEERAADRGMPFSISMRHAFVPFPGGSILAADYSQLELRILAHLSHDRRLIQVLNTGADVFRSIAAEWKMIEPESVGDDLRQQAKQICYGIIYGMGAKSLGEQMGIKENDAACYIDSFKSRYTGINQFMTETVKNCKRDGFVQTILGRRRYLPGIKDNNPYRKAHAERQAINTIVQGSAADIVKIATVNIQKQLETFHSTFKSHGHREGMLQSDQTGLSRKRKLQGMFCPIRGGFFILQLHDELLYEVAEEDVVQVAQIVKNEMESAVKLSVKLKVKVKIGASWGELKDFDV
Observed: enzyme activity
Mode: inhibitor
Tested at: 77 µM
Reference: untreated
Quantity: remaining activity
CCN(CC)CCOC(=O)c1ccc(N)cc1Cl: 101%
CC1(C)S[C@@H]2[C@H](NC(=O)[C@H](N)c3ccccc3)C(=O)N2[C@H]1C(=O)OC1OC(=O)c2ccccc21 (some centres unmarked): 99.9%
O=C(NC1CCN(CCCCC2(C(=O)NCC(F)(F)F)c3ccccc3-c3ccccc32)CC1)c1ccccc1-c1ccc(C(F)(F)F)cc1: 99.4%
CC(C)(Oc1ccc(Cl)cc1)C(=O)O: 97.5% and 97.2%
CC(C(=O)O)c1ccc(C(=O)c2cccs2)cc1 (centres unmarked): 89% and 108%
COc1ccc(-c2ccc3c(N4CCOCC4)nc(N4C[C@@H](C)O[C@@H](C)C4)nc3n2)cc1CO: 94.7% and 108% and 106%
C[C@H](O)C(=O)C1=Nc2c(nc(N)[nH]c2=O)NC1: 98.7%
NC[C@@H]1O[C@H](c2ccccc2)Cc2c1ccc(O)c2O: 98.8%

Sample 4
Target: Bromodomain-containing protein 4, BD1 (BRD4, Homo sapiens, UniProt O60885)
Tested at: 50 µM
Quantity: inhibition
CCS(=O)(=O)N1CC(CC#N)(n2cc(-c3ncnc4[nH]ccc34)cn2)C1: 1.6%
NC1(c2ccc(-c3nc4ccn5c(=O)[nH]nc5c4cc3-c3ccccc3)cc2)CCC1: 21.4%
CO[C@@H]1[C@H](N(C)C(=O)c2ccccc2)C[C@H]2O[C@]1(C)n1c3ccccc3c3c4c(c5c6ccccc6n2c5c31)C(=O)NC4: 5.15%
COc1cc2ncnc(Nc3ccc(F)c(Cl)c3)c2cc1OCCCN1CCOCC1: 16.4%
O=C1NC(=O)[C@@H](c2cn3c4c(cccc24)CCC3)[C@@H]1c1c[nH]c2ccccc12: 52.6%
Cc1ccc(C(=O)Nc2ccc(CN3CCN(C)CC3)c(C(F)(F)F)c2)cc1C#Cc1cnc2cccnn12: 76.1%

Some of these lines once more (sample 4):
NC1(c2ccc(-c3nc4ccn5c(=O)[nH]nc5c4cc3-c3ccccc3)cc2)CCC1: 21.4%
CO[C@@H]1[C@H](N(C)C(=O)c2ccccc2)C[C@H]2O[C@]1(C)n1c3ccccc3c3c4c(c5c6ccccc6n2c5c31)C(=O)NC4: 5.15%
COc1cc2ncnc(Nc3ccc(F)c(Cl)c3)c2cc1OCCCN1CCOCC1: 16.4%
O=C1NC(=O)[C@@H](c2cn3c4c(cccc24)CCC3)[C@@H]1c1c[nH]c2ccccc12: 52.6%
Cc1ccc(C(=O)Nc2ccc(CN3CCN(C)CC3)c(C(F)(F)F)c2)cc1C#Cc1cnc2cccnn12: 76.1%
